Measurements gathered from unrelated publications.
Every numbered part comes from another study and shows a few of its results, in no order.
Sequence of UniProt Q04759 (whole entry, looked up): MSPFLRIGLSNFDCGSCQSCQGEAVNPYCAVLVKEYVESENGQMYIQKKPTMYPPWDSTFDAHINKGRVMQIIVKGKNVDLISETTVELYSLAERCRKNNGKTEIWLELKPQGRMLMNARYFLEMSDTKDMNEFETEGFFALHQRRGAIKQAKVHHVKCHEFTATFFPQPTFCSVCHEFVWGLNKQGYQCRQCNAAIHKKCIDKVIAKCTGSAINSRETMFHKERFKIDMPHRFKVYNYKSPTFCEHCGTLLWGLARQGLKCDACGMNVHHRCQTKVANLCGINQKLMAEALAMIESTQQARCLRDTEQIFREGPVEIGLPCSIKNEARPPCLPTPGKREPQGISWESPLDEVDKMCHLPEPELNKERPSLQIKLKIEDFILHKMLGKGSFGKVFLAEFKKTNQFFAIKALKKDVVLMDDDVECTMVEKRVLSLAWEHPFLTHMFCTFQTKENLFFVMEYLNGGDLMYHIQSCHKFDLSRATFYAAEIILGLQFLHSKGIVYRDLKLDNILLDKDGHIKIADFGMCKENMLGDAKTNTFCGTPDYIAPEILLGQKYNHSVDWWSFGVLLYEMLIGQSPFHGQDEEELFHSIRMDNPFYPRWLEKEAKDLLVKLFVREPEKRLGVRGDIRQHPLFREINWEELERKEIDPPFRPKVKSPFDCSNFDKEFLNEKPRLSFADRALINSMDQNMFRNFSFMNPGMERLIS
Sequence of UniProt P31152 (whole entry, looked up): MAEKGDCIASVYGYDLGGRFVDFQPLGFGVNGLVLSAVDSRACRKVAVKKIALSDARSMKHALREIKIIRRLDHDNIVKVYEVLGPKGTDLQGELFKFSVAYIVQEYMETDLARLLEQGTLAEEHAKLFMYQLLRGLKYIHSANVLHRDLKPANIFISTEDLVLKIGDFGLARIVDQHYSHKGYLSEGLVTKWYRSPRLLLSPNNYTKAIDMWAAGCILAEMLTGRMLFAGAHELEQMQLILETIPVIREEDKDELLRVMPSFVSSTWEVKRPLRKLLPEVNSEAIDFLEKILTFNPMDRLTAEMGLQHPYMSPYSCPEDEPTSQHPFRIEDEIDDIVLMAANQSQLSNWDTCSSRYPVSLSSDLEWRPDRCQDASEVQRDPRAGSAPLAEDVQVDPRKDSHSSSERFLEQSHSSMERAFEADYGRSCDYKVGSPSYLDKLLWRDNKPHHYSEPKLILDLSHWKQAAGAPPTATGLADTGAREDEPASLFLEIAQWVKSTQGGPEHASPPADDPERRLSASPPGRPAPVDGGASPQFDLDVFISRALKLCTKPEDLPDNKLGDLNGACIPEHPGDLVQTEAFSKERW
Sequence of UniProt Q05513 (whole entry, looked up): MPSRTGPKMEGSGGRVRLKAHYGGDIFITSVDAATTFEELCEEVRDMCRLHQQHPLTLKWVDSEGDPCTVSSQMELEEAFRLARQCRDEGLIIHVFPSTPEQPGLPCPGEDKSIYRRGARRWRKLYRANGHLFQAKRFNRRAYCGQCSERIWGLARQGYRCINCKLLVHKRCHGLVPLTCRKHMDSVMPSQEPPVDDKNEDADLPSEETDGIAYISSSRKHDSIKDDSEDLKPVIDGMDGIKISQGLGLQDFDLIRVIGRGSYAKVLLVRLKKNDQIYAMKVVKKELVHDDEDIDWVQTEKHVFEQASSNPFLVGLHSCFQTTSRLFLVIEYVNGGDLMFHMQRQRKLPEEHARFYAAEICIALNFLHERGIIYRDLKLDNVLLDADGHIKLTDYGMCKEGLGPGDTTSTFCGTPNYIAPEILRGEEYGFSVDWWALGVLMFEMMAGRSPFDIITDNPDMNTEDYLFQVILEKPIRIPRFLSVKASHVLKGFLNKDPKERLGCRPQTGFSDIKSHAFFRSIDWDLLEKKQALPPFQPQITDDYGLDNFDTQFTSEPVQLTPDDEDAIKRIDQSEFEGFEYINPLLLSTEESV
Sequence of UniProt Q9UPE1 (whole entry, looked up): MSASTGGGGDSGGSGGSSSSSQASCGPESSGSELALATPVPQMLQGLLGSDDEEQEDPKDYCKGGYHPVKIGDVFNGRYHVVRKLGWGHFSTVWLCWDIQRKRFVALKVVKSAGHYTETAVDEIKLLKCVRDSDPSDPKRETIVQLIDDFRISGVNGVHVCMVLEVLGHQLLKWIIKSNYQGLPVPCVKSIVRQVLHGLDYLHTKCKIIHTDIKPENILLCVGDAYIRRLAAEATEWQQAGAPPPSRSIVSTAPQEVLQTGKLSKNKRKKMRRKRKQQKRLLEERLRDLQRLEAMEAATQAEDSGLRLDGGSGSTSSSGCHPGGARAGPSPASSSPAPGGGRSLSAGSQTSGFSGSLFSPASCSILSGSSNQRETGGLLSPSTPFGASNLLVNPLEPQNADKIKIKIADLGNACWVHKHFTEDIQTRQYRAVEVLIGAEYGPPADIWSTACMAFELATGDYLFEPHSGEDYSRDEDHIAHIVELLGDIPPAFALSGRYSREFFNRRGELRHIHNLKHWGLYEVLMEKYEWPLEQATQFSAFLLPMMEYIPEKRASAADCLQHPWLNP
Sequence of UniProt Q06418 (whole entry, looked up): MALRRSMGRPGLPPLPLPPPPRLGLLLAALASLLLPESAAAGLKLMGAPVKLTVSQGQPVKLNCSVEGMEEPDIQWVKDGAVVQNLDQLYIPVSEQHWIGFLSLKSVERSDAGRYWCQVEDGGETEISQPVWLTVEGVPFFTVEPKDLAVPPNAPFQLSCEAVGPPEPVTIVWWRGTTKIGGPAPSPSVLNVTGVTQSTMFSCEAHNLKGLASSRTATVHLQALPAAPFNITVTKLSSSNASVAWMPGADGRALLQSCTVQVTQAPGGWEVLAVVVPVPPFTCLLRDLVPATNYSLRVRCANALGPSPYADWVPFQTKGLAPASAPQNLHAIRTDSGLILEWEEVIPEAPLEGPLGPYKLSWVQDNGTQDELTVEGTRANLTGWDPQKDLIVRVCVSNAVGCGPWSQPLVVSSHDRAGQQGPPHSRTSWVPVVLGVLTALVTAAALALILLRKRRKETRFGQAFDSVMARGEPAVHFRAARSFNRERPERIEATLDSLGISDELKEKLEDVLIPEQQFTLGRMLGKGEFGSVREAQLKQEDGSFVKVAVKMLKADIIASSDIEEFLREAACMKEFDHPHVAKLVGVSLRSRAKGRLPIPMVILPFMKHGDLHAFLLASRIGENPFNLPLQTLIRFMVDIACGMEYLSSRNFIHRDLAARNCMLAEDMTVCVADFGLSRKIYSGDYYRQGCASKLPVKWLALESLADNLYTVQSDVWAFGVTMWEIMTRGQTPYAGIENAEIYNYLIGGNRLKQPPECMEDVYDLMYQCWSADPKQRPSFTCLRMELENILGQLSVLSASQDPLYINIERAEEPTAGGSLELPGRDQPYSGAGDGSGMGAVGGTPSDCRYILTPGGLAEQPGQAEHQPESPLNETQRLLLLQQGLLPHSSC
Sequence of UniProt Q13523 (whole entry, looked up): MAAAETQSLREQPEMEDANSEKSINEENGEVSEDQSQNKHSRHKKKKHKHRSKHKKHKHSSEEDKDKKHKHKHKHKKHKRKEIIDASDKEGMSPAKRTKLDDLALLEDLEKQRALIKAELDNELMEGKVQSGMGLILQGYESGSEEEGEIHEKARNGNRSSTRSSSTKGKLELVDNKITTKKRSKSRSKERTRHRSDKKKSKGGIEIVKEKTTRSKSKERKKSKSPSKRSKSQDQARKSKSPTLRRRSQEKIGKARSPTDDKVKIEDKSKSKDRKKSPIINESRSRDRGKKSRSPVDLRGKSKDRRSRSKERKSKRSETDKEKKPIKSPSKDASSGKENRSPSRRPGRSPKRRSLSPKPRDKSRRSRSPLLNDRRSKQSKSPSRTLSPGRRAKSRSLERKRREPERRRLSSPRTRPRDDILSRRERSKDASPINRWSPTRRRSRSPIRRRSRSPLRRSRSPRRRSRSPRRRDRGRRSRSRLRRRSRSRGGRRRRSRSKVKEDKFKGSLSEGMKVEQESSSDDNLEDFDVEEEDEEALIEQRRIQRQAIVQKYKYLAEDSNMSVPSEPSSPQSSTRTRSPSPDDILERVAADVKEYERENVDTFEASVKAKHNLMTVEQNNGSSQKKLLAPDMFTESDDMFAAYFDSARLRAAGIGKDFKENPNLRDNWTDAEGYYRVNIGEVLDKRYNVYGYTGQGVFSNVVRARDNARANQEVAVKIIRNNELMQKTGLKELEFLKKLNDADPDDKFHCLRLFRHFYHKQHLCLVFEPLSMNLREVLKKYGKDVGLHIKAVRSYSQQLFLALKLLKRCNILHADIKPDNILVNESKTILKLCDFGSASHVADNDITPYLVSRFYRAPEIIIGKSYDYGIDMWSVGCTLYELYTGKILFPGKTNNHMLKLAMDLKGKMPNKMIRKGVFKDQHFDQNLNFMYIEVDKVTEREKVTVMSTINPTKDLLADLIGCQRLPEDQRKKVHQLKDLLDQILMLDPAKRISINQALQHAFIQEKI
Sequence of UniProt P48730 (whole entry, looked up): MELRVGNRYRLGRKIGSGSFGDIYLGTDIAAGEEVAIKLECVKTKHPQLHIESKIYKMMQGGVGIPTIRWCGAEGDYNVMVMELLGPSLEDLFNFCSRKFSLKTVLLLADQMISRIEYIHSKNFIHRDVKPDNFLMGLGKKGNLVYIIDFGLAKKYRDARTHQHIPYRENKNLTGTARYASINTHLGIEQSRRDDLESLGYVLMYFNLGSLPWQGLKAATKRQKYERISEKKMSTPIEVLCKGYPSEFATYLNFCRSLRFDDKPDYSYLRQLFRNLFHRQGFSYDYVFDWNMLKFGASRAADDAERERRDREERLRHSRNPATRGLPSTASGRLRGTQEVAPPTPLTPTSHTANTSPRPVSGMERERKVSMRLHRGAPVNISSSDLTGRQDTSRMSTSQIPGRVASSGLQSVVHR

Series 1 — read-out: cell-free assay; technique: competition with immobilised ligand; tested at: 1 µM; measurement: remaining binding
Structure (SMILES): O=C(Nc1cccnn1)N1CCC(=Cc2cccc(Oc3ccc(C(F)(F)F)cn3)c2)CC1
Protein-tyrosine kinase 6 (PTK6, Homo sapiens, UniProt Q13882): 100%
Serine/threonine-protein kinase LATS1 (LATS1, Homo sapiens, UniProt O95835): 100%
Serine/threonine-protein kinase Sgk1 (SGK1, Homo sapiens, UniProt O00141): 100%
Mitogen-activated protein kinase 4 (MAPK4, Homo sapiens, UniProt P31152): 95%
Serine/threonine-protein kinase PRP4 homolog (PRPF4B, Homo sapiens, UniProt Q13523): 100%
Tyrosine-protein kinase Mer (MERTK, Homo sapiens, UniProt Q12866): 81%
Beta-adrenergic receptor kinase 1 (GRK2, Homo sapiens, UniProt P25098): 100%
SRSF protein kinase 3 (SRPK3, Homo sapiens, UniProt Q9UPE1): 81%
Macrophage colony-stimulating factor 1 receptor (CSF1R, Homo sapiens, UniProt P07333): 95%
Serine/threonine-protein kinase B-raf (BRAF, Homo sapiens, UniProt P15056): 93%
LIM domain kinase 1 (LIMK1, Homo sapiens, UniProt P53667): 88%
Cyclin-dependent kinase 9 (CDK9, Homo sapiens, UniProt P50750): 93%
Phosphatidylinositol 4,5-bisphosphate 3-kinase catalytic subunit alpha isoform (PIK3CA, Homo sapiens, UniProt P42336, E545A): 100%

Series 2 — read-out: enzyme activity; mode: inhibitor; tested at: 0.5 µM; reference: control; measurement: remaining activity
Structure (SMILES): COc1ccc2c(c1)c(C1=C(c3c[nH]c4ccccc34)C(=O)NC1=O)cn2CCCN(C)C
Vascular endothelial growth factor receptor 1 (FLT1, Homo sapiens, UniProt P17948): 22%
SRSF protein kinase 1 (SRPK1, Homo sapiens, UniProt Q96SB4): 116%
Serine/threonine-protein kinase PAK 6 (PAK6, Homo sapiens, UniProt Q9NQU5): 70.4%
Tyrosine-protein kinase receptor TYRO3 (TYRO3, Homo sapiens, UniProt Q06418): 90.7%
Protein kinase C theta type (PRKCQ, Homo sapiens, UniProt Q04759): 4.5%
Dual specificity protein kinase CLK2 (CLK2, Homo sapiens, UniProt P49760): 78%
Cyclin-dependent kinase 2, with cyclin E (CDK2, Homo sapiens, UniProt P24941): 97.9%
Casein kinase I isoform delta (CSNK1D, Homo sapiens, UniProt P48730): 92%
Dual specificity protein kinase CLK1 (CLK1, Homo sapiens, UniProt P49759): 48.2%
Protein kinase C zeta type (PRKCZ, Homo sapiens, UniProt Q05513): 78.2%

Series 3 — technique: protein-binding microarray; molecule type: double-stranded DNA, one strand shown; medium: in vitro; tested at: not given; direction: higher = stronger binding; measurement: E-score
Target: Max dimerization protein 1, bHLH-zipper, MAX partner unstated (MXD1, Homo sapiens, UniProt Q05195, residues 56-136)
Notes: k-mer, scored over probes, only values ≥0.25
Residues (chain): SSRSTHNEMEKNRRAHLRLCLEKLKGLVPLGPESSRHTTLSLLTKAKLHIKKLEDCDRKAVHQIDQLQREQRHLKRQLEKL
ATCACGTG: 0.48
CGCATTGC: 0.259
CCCATGGC: 0.259
GCAGAACA: 0.298
AAACACAC: 0.276
CGTGCAAC: 0.298
CGTGGCAG: 0.253
AATCATGC: 0.275

Series 4 — technique: protein-binding microarray; molecule type: hairpin DNA; medium: in vitro; tested at: not given; reference: not given; direction: higher = stronger binding; measurement: median fluorescence; shared flanks, not repeated: GCAGGCCC … GGGCCTGCACACTCTTTCCCTACACGAC
Target: Transcription factor SOX-2, HMG box (SOX2, Homo sapiens, UniProt P48431, residues 37-118)
Sequence of UniProt P48431 (37-118, looked up): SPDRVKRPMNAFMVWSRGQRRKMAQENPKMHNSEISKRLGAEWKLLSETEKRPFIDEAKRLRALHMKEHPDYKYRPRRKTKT
Notes: whole hairpin DNA, median over replicate spots
CCAATGGGCCTCCTGGCCCATTGG: 2520 a.u.
ACCGTGGGCCTCCTGGCCCACGGT (5mC at 11): 2430 a.u.
GCAATGGGCCTCCTGGCCCATTGC (5mC at 32): 2500 a.u.
ACCCTGGGCCTCCTGGCCCAGGGT: 2360 a.u.
ACAATGGGCCTCCTGGCCCATTGT (5mC at 10): 2920 a.u.
ACACTGGGCCTCCTGGCCCAGTGT (5mC at 12): 2380 a.u.
ACAATCGGCCTCCTGGCCGATTGT: 2970 a.u.
ACACGGGGCCTCCTGGCCCCGTGT (5mC at 28): 2360 a.u.

Excerpt of the above (series 4):
ACAATGGGCCTCCTGGCCCATTGT (5mC at 10): 2920 a.u.
ACACGGGGCCTCCTGGCCCCGTGT (5mC at 28): 2360 a.u.
ACCCTGGGCCTCCTGGCCCAGGGT: 2360 a.u.
GCAATGGGCCTCCTGGCCCATTGC (5mC at 32): 2500 a.u.
CCAATGGGCCTCCTGGCCCATTGG: 2520 a.u.
